{"data": "Assay results gathered from unrelated publications", "CNR2": "Cannabinoid receptor 2 (CNR2, Homo sapiens, UniProt P34972)", "C3AR1": "C3a anaphylatoxin chemotactic receptor (C3AR1, Homo sapiens, UniProt Q16581)", "GNRHR": "Gonadotropin-releasing hormone receptor (GNRHR, Homo sapiens, UniProt P30968)", "note": "Lines come from different studies, so protocols differ. ± gives the spread as reported.", "chain of UniProt P34972 (whole entry, looked up)": "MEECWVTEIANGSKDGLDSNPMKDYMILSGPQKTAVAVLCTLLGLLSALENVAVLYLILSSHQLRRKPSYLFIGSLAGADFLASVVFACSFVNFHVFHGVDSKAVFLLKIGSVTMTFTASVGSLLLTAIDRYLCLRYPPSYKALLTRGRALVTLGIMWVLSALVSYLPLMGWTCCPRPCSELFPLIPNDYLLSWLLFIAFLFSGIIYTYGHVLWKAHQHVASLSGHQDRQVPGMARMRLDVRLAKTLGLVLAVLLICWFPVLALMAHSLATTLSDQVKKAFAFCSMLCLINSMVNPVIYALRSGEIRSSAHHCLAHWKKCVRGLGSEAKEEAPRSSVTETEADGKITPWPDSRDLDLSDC", "chain of UniProt P30968 (whole entry, looked up)": "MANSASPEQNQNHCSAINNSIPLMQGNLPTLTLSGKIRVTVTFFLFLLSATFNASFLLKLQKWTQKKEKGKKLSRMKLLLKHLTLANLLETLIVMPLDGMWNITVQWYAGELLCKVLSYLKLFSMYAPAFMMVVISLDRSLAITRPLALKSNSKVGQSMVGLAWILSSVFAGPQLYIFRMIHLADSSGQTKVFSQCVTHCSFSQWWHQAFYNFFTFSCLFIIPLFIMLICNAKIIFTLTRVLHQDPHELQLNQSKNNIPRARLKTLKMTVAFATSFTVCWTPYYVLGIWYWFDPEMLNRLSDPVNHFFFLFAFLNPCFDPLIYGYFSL", "chain of UniProt Q16581 (whole entry, looked up)": "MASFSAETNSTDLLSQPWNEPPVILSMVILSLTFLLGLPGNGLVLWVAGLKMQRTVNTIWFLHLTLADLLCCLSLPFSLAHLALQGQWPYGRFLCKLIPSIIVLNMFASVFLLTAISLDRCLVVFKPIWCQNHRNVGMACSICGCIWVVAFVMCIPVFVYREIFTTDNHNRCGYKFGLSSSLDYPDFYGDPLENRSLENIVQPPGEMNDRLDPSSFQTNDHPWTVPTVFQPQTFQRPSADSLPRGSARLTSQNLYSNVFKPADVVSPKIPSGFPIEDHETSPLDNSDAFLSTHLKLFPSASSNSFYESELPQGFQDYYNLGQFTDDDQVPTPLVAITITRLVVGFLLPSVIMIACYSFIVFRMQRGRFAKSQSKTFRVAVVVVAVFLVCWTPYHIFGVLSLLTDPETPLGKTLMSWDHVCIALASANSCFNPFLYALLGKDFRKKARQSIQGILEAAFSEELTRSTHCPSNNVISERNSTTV", "chain of UniProt Q9NSD7 (whole entry, unmodified, looked up)": "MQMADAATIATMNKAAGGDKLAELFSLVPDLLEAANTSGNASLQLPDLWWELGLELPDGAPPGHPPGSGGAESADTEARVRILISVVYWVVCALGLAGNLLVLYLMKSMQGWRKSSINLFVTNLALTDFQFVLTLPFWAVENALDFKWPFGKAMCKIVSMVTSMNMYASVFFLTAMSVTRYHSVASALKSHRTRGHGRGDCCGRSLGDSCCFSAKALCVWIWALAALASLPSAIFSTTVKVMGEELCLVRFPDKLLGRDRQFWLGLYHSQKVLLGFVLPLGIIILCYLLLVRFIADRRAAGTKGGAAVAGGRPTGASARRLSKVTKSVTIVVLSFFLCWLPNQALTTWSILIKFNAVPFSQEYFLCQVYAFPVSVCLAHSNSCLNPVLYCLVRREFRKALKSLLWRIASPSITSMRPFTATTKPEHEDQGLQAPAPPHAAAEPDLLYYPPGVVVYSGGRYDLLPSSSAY", "chain of UniProt O43193 (whole entry, unmodified, looked up)": "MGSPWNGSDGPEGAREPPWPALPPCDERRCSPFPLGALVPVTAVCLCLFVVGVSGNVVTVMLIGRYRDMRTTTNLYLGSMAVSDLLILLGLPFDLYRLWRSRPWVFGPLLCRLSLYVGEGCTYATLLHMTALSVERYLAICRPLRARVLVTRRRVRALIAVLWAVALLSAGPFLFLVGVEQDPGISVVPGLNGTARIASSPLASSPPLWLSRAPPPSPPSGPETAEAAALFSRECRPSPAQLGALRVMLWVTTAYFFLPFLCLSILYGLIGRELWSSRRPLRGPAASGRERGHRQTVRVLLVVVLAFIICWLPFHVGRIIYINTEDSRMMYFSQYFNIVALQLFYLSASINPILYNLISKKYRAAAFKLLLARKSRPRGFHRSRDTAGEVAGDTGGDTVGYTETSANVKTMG", "chain of UniProt P25103 (whole entry, looked up)": "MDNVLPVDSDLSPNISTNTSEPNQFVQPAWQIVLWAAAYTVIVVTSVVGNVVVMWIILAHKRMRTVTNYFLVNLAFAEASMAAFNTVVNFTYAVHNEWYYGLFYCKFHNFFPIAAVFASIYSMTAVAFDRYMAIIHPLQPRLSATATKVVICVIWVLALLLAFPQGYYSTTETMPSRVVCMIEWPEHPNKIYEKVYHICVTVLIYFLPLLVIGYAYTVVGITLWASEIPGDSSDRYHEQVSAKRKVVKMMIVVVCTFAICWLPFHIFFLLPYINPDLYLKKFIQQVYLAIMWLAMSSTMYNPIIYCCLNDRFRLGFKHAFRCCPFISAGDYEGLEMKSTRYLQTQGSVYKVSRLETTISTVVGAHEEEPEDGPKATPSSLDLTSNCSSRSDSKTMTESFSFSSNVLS", "chain of UniProt P07026 (whole entry, looked up)": "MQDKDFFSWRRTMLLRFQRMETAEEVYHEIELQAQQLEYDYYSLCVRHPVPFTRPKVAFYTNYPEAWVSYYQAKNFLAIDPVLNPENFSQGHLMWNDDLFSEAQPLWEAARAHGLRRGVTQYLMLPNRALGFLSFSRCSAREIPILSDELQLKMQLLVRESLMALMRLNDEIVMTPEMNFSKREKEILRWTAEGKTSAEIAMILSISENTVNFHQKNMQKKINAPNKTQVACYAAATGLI"}
{"Compound": "CCOC(=O)C(CC)(CCCSCCOCCOCCOCCOCCNc1ccc([N+](=O)[O-])c2nonc12)NC(=O)c1ccc(C2CC2)c(Cc2ccc(F)cc2)n1 (stereo not shown)", "target": "CNR2", "test": "cAMP, agonist", "Emax [%]": 102}
{"Compound": "O=C(Cc1ccc([N+](=O)[O-])cc1)N[C@H]1CCOC1=O", "target": "Regulatory protein SdiA (sdiA, Escherichia coli, UniProt P07026)", "Emax [%]": 95}
{"Compound": "Cc1cc(C(c2ccc(Cl)cc2)c2ccc(Cl)cc2)sc1C(=O)N[C@@H](CCCN=C(N)N)C(=O)O", "target": "C3AR1", "test": "GoA dissociation, agonist, NanoBiT G-protein", "Emax [%]": "61 ± 0.84"}
{"Compound": "COc1cc(C2C(NC(=O)c3ccc(NC(=O)OC(C)(C)C)cc3)(C(=O)O)C(c3ccc(OC(=O)c4cccs4)c(OC)c3)C2(NC(=O)c2ccc(NC(=O)OC(C)(C)C)cc2)C(=O)O)ccc1OC(=O)c1cccs1 (stereo not shown)", "target": "GLP1R (Homo sapiens, UniProt P43220, F381A)", "test": "cAMP accumulation, agonist", "conditions": "receptor mutant", "how to read": "relative to: wild type", "Emax [%]": "99.1 ± 4.66"}
{"Compound": "CCc1cc(O)cc2c(/C=N/NC(=N)NCCc3ccc(Cl)cc3)c[nH]c12", "target": "RXFP3 (Homo sapiens, UniProt Q9NSD7, S163V)", "test system": "HEK-293T", "how to read": "relative to: wild type", "Emax [%]": "72.9 ± 5.48"}
{"Compound": "CC(C)C[C@H](NC(=O)[C@@H](N)[C@@H](C)O)C(=O)N[C@@H](CCC(N)=O)C(=O)N1CCC[C@H]1C(=O)N1CCC[C@H]1C(=O)N[C@@H](C)C(=O)N[C@@H](CO)C(=O)N[C@@H](CO)C(=O)N[C@@H](CCCNC(=N)N)C(=O)N[C@@H](CCCNC(=N)N)C(=O)N[C@@H](CCCNC(=N)N)C(=O)N[C@@H](Cc1c[nH]cn1)C(=O)N[C@@H](Cc1ccccc1)C(=O)N[C@@H](Cc1c[nH]cn1)C(=O)N[C@@H](Cc1c[nH]cn1)C(=O)N[C@@H](C)C(=O)N[C@@H](CC(C)C)C(=O)N1CCC[C@H]1C(=O)N1CCC[C@H]1C(=O)N[C@@H](C)C(=O)N[C@@H](CCCNC(=N)N)C(=O)O", "target": "C3AR1", "test": "GoA protein dissociation, agonist, NanoBiT", "how to read": "relative to: TLQP-21", "Emax [%]": "45.4 ± 1.83"}
{"Compound": "CC[C@H](C)[C@H](NC(=O)[C@@H]1CCCN1C(=O)[C@@H](NC(=O)[C@@H](N)Cc1ccccc1)C(C)C)C(=O)N[C@@H](Cc1ccccc1)C(=O)N[C@H](C(=O)N[C@@H](Cc1ccc(O)cc1)C(=O)NCC(=O)N[C@@H](CCC(=O)O)C(=O)N[C@@H](CC(C)C)C(=O)N[C@@H](CCC(N)=O)C(=O)N[C@@H](CCCNC(=N)N)C(=O)N[C@@H](CCSC)C(=O)N[C@@H](CCC(N)=O)C(=O)N[C@@H](CCC(=O)O)C(=O)N[C@@H](CCCCN)C(=O)N[C@@H](CCC(=O)O)C(=O)N[C@@H](CCCNC(=N)N)C(=O)N[C@@H](CC(N)=O)C(=O)N[C@@H](CCCCN)C(=O)NCC(=O)N[C@@H](CCC(N)=O)C(=O)O)[C@@H](C)O", "target": "Motilin receptor (MLNR, Homo sapiens, UniProt O43193, F33A)", "test": "IP1 accumulation, agonist, IP-One HTRF", "test system": "AD293 cells", "conditions": "1 h, 37 °C", "Emax [%]": "55 ± 7.7"}
{"Compound": "CCOC(=O)C(CC)(CCCSCCCCCCNc1ccc([N+](=O)[O-])c2nonc12)NC(=O)c1ccc(C2CC2)c(Cc2ccc(F)cc2)n1 (stereo not shown)", "target": "CNR2", "test": "cAMP, agonist", "Emax [%]": 100}
{"Compound": "CCNC(=O)[C@@H]1CCCN1C(=O)[C@H](CCCNC(=N)N)NC(=O)[C@H](CC(C)C)NC(=O)[C@@H](C)NC(=O)[C@H](Cc1ccc(O)cc1)NC(=O)[C@H](CO)NC(=O)[C@H](Cc1c[nH]c2ccccc12)NC(=O)[C@H](Cc1c[nH]cn1)NC(=O)[C@@H]1CCC(=O)N1", "target": "GNRHR", "test": "inositol phosphate, agonist, TR-FRET", "test system": "HEK-293T", "conditions": "1 h", "Emax [%]": 100}
{"Compound": "CCOC(=O)C(CC)(CCCSCCOCCOCCN)NC(=O)c1ccc(C2CC2)c(Cc2ccc(F)cc2)n1 (racemic)", "target": "CNR2", "test": "cAMP, agonist", "Emax [%]": 92}
{"Compound": "CC(C)C[C@H](NC(=O)[C@@H](Cc1c[nH]c2ccccc12)NC(=O)[C@H](Cc1ccc(O)cc1)NC(=O)[C@H](CO)NC(=O)[C@H](Cc1c[nH]c2ccccc12)NC(=O)[C@H](Cc1c[nH]cn1)NC(=O)[C@@H]1CCC(=O)N1)C(=O)N[C@@H](CCCNC(=N)N)C(=O)N1CCC[C@H]1C(=O)NCC(N)=O", "target": "GNRHR", "test": "inositol phosphate, agonist, TR-FRET", "test system": "HEK-293T", "conditions": "1 h", "Emax [%]": 100}
{"Compound": "CCOC(=O)C(CC)(CCCSCCOCCOCCNC(=O)OC(C)(C)C)NC(=O)c1ccc(C2CC2)c(Cc2ccc(F)cc2)n1 (racemic)", "target": "CNR2", "test": "cAMP, agonist", "Emax [%]": 93}
{"Compound": "CSCC[C@H](NC(=O)[C@H](CC(C)C)NC(=O)CNC(=O)[C@H](Cc1ccccc1)NC(=O)[C@H](Cc1ccccc1)NC(=O)[C@@H](N)CCC(N)=O)C(N)=O", "target": "TACR1 (Homo sapiens, UniProt P25103)", "Emax [%]": 96}
{"note": "Excerpt of the above:"}
{"Compound": "COc1cc(C2C(NC(=O)c3ccc(NC(=O)OC(C)(C)C)cc3)(C(=O)O)C(c3ccc(OC(=O)c4cccs4)c(OC)c3)C2(NC(=O)c2ccc(NC(=O)OC(C)(C)C)cc2)C(=O)O)ccc1OC(=O)c1cccs1 (stereo not shown)", "target": "GLP1R (Homo sapiens, UniProt P43220, F381A)", "test": "cAMP accumulation, agonist", "conditions": "receptor mutant", "how to read": "relative to: wild type", "Emax [%]": "99.1 ± 4.66"}
